Measurements from different studies.
Compare with care: the assays were run in different laboratories. “And” joins repeats or separate records; there may be more than shown. ± gives the spread as reported. ≈ marks a conversion by molar mass, not a printed value.

With Cc1c(CN(C)C(=O)/C=C/c2cnc3c(c2)CC(NC(=O)OC(C)(C)C)C(=O)N3)oc2ccccc12 (centres unmarked) the MIC was > 32 µg/mL (Acinetobacter baumannii; broth microdilution; AR-0313).
For COC(=O)[C@@H](CCSC)NCc1cc2ccccc2nc1SC, the growth was 95.2% (Pseudomonas aeruginosa; 16 µg/mL, together with: pentamidine 50 µM; reference: control).
CC(C)n1ncc2c(C(=O)NCC3(C)CNC3)cc(C3CC3)nc21 has a cell protection of -0.0343% and 0.0343% (coxsackievirus B3; CPE; Vero; 0.015 µM).
The Kd of COc1ccccc1-n1nnnc1SCC(=O)Nc1ccccc1SC is reported as > 100000 nM (Cyclin-dependent kinase 2, with cyclin A (CDK2, Homo sapiens, UniProt P24941)).
C=C[C@]1(C)C[C@@H](OC(=O)CSCCN(CC)CC)[C@]2(C)[C@H](C)CC[C@]3(CCC(=O)[C@H]32)[C@@H](C)[C@@H]1O — result for “reduction in lung mycoplasma load”: 2.71 log10 CFU/mL and 2.9 log10 CFU/mL and 2.82 log10 CFU/mL and 3.11 log10 CFU/mL and 3.02 log10 CFU/mL and 2.5 log10 CFU/mL and 2.96 log10 CFU/mL and 2.44 log10 CFU/mL (Mycoplasma gallisepticum; infected chickens, lung; oral, 40 mg/kg; reference: 0 h).
For Cc1ccc(CCC(=O)Nc2nnc(S(N)(=O)=O)s2)cc1, the MIC was 0.766 µM (Enterococcus faecium; NR-31954).
Under “MIC in combination”, N=C(N)c1ccc(OCc2cc(COc3ccc(C(=N)N)cc3)cc(-c3ccccc3)c2)cc1 is recorded as 3.13 µg/mL (Escherichia coli; ATCC 25922; concentration not given, together with: rifampicin).
COc1cc2c(cc1NC(=O)c1ccc(C(C)(C)C)cc1)CCCCC2 gave an EC90 of 110 nM (Dengue virus 2; viral replication; HEK293).
With CC(=O)NC[C@H]1CN(c2ccc(N3CCOCC3)c(F)c2)C(=O)O1 the MIC was 2.96 µM (Enterococcus faecium; NR-31954).
For CCOC(=O)c1c(C)nc(NCCNc2ccnc3cc(Cl)ccc23)nc1-c1ccccc1, the EC50 was > 4000 nM (feline herpesvirus; viral replication; CRFK).
The EC50 of CN1CCN(c2cnc3c(cc(C(=O)NCc4ccc(Cl)cc4)c(=O)n3CC(=O)N3CC(C)(F)C3)n2)C1=O is reported as 280 nM (herpes simplex virus 2; viral cytopathic effect; Vero, G; 120 h).
For O=c1c(-c2nc3ccccc3s2)cc2c(n1NS(=O)(=O)c1ccc(Cl)cc1)CCCC2, the reduction was 0% (Human alphaherpesvirus 1; viral replication, plaque reduction; Vero cells; non-toxic concentration).
The ED50 of CN[C@H](CC(C)C)C(=O)N[C@H]1C(=O)N[C@@H](CC(N)=O)C(=O)N[C@H]2C(=O)N[C@H]3C(=O)N[C@H](C(=O)N[C@H](C(=O)O)c4cc(O)cc(O)c4-c4cc3ccc4O)[C@H](O)c3ccc(c(Cl)c3)Oc3cc2cc(c3O[C@@H]2O[C@H](CO)[C@@H](O)[C@H](O)[C@H]2O[C@H]2C[C@](C)(N)[C@H](O)[C@H](C)O2)Oc2ccc(cc2Cl)[C@H]1O is reported as 8.38 mg/kg (Staphylococcus; MRSA-38, mouse systemic infection; intravenous; survival).
Cn1cc(-c2ccc(-c3cncc(Cl)c3N3CCC4(CCNC4=O)CC3)cc2)cn1: “log2 fold change” -2.26 (COLO 205; gene expression, microarray, measured: CFL2 mRNA; concentration not given, 2 h; reference: untreated cells).
With O=c1[nH]c2ncsc2c(=O)n1O the inhibition was 0% (Echinochloa crus-galli; glasshouse pot; 750 g/ha, 21 days, pre-emergence).
For COC(=O)[C@H](Cc1c[nH]c2ccccc12)NCc1cc2ccccc2nc1SC, the growth was 55.8% (Pseudomonas aeruginosa; 16 µg/mL, together with: pentamidine 100 µM; reference: control).
Under viral replication, Cc1nc2c(NCc3cccc(S(C)(=O)=O)c3)nccn2c1-c1ccc(O)c(F)c1 is recorded as “inhibited” (Rhinovirus C; high-throughput screen; RV-C15a-mGL; 10 µM).
For CC1=CC(=O)CC(C)(C)[C@@]1(O)/C=C/C(C)=C\C(=O)O, “number of germinated seeds” read 11 and 8 and 7 (Arabidopsis thaliana; pyl3/7/9/11/12 mutant, seeds; 1 µM).
CCn1c(=O)c(-c2cc[nH]n2)cc2c(C)nc(N)nc21 — result for viral titre: “decreased” (Echovirus 11; viral replication; HeLa; concentration not given, 20 h).
With CCc1nn(C)c2nc(-c3ccc(C(=O)O)cc3)nc(NCc3ccc(F)cc3)c12 the parasite number was 24.2% and 23.9% and 22.6% and 24.1% (Cryptosporidium parvum; HCT-8; 6 x EC90, 24 h; reference: DMSO control).
The MIC50 of CC1(C)S[C@@H]2[C@H](NC(=O)[C@H](N)c3ccccc3)C(=O)N2[C@H]1C(=O)O is reported as 128 µg/mL (≈ 366 µM) (Enterococcus faecium; agar dilution; vancomycin-intermediate; 25 isolates).
COc1cc(C#CC(=O)c2ccccc2)ccc1O has an IC50 of 9000 nM (Pseudomonas aeruginosa; biofilm formation; PA14; static).
For C[C@@H]1[C@H](O)[C@@H](C)/C=C/C=C/C=C/C=C/C=C/C=C/C=C/[C@H](O[C@@H]2O[C@H](C)[C@@H](O)[C@H](N)[C@@H]2O)C[C@@H]2O[C@](O)(C[C@@H](O)C[C@@H](O)[C@H](O)CC[C@@H](O)C[C@@H](O)CC(=O)O[C@H]1C)C[C@H](O)[C@H]2C(=O)O, “biofilm mass reduction” read 44 to 50% (Aspergillus fumigatus; XTT, preformed biofilm; Af 293; 1 × MIC, 24 h).
CCN1CCC(CCNCc2cc3cc(OC)c(OC)c(OC)c3nc2SCc2ccccc2)CC1 gave an inhibition of 72% (Acinetobacter baumannii; NADH-driven proton pumping, ACMA quenching; inverted membrane vesicles; 32 µg/mL).
N=C(N)c1ccc(OCCC(CCOc2ccc(C(=N)N)cc2)c2ccccc2)cc1 (centres unmarked): “MIC of compound in combination” 12.5 µg/mL (Escherichia coli; checkerboard; mcr-1 polymyxin-resistant; concentration not given, 20 h, together with: rifampicin).
The EC50 of Nc1nc(O)c2ncn(COC(CO)CO)c2n1 is reported as 240 nM (herpes simplex virus 2; viral replication; HEL cells, G).
COC(=O)[C@H](Cc1ccc(O)cc1)NCc1cc2ccccc2nc1SC gave a growth of 97.3% (Pseudomonas aeruginosa; 16 µg/mL, together with: pentamidine 50 µM; reference: control).
For CN1CCN(CCNCc2cc3ccccc3nc2SCc2ccccc2)CC1, the inhibition was 85% (Acinetobacter baumannii; NADH-driven proton pumping, ACMA quenching; inverted membrane vesicles; 32 µg/mL).
CC(=O)NC[C@H]1CN(c2ccc(N3CCOCC3)c(F)c2)C(=O)O1 gave an ED50 of 13.4 mg/kg (Staphylococcus; MRSE-37, mouse systemic infection; intravenous; survival).
For COC[C@H]1O[C@@H]2O[C@H]3[C@H](OC)[C@@H](OC)[C@@H](O[C@H]4[C@H](OC)[C@@H](OC)[C@@H](O[C@H]5[C@H](OC)[C@@H](OC)[C@@H](O[C@H]6[C@H](OC)[C@@H](OC)[C@@H](O[C@H]7[C@H](OC)[C@@H](OC)[C@@H](O[C@H]8[C@H](OC)[C@@H](OC)[C@@H](O[C@H]1[C@H](OC)[C@H]2OC)O[C@@H]8COC)O[C@@H]7COC)O[C@@H]6COC)O[C@@H]5COC)O[C@@H]4COC)O[C@@H]3COC, the bioluminescence was 772 ± 168 RLU (Escherichia coli; LuxR reporter, agonist; DH5α sensor strain; 20 µM).
With C[C@@H](O)[C@H]1C(=O)N2C(C(=O)O)=C(SCCN=CN)C[C@H]12 the bacterial load was 3 log CFU and 2.22 log CFU and 3.48 log CFU and 2.52 log CFU (Acinetobacter baumannii; 0403, female ICR mice, peritonitis, heart; dose not given).
CN[C@H](CC(C)C)C(=O)N[C@H]1C(=O)N[C@@H](CC(N)=O)C(=O)N[C@H]2C(=O)N[C@H]3C(=O)N[C@H](C(=O)N[C@H](C(=O)O)c4cc(O)cc(O)c4-c4cc3ccc4O)[C@H](O)c3ccc(c(Cl)c3)Oc3cc2cc(c3O[C@@H]2O[C@H](CO)[C@@H](O)[C@H](O)[C@H]2O[C@H]2C[C@](C)(N)[C@H](O)[C@H](C)O2)Oc2ccc(cc2Cl)[C@H]1O has an MBC of 1 µg/mL (≈ 0.69 µM) (Streptococcus pyogenes; ATCC 19615; 1 strain).
The germination rate of O=C(N1CCc2ccccc21)n1ccnn1 is reported as 55.9% and 36.1% and 57.1% and 42.5% and 50% and 67.9% (Arabidopsis thaliana; wild type, seeds; 1 µM, after high-temperature exposure, together with: 1 µM karrikin KAR2).
For COC(=O)[C@@H](NCc1cc2ccccc2nc1OCc1ccccc1)C(C)C, the growth was 93.5% (Pseudomonas aeruginosa; 16 µg/mL, without pentamidine; reference: control).
Cc1nc(NCCNc2ccnc3cc(Cl)ccc23)nc(-c2ccccc2[N+](=O)[O-])c1C(=O)OC(C)C gave an EC50 of > 100000 nM (feline herpesvirus; viral replication; CRFK).
With CC(=O)N1CCC(C(=O)N2CCN3C(=O)c4cc(-c5ccccc5)ccc4NC(=O)C3C2)CC1 (centres unmarked) the mean lifespan was 26.5 days (Caenorhabditis elegans; N2; 50 µM).
With Cc1nc2[nH]c(=O)n(O)c(=O)c2s1 the inhibition was 0% (Echinochloa crus-galli; glasshouse pot; 750 g/ha, 21 days, post-emergence).
CC1=C[C@H](O/C=C2/C(=O)O[C@@H]3c4ccccc4C[C@H]23)OC1=O (racemic) has a hypocotyl length of 3.39 mm (Arabidopsis thaliana; kai2-2 mutant, seedlings; 1 µM).
The EC50 of Cc1cc(OC(C)C)ccc1C(=O)C(C)(C)NC(=O)c1sccc1C is reported as 0.66 µg/mL (Passalora; mycelial growth; PSA medium; 20 °C, suspension concentrate 400 g/L).
O=c1cc2ccocc-2o1 has a germination rate of 55.7% (Arabidopsis thaliana; wild type, seeds; 1 µM, after high temperature).
With Nc1nc(-c2ccccc2)nc2[nH]nc(Nc3ccc(C(F)(F)F)cc3)c12 the clinical score was 0.2 (coxsackievirus B3; 31-1-93, NMRI mice, CVB3 chronic myocarditis; oral, 100 mg/kg twice daily, day 9, dosed days 0 to 6, score scale 0 to 7; direction not given).
